Results from different studies.
Protocols differ between the studies behind these lines. ± marks the error that the study gave.

SMILES | host | sample | route | dose | time | notes | tissue uptake
CCCC[C@H](NC(=O)CNC(=O)CNC(=O)CN1CCN(CC(=O)O)CCN(CC(=O)O)CCN(CC(=O)O)CC1)C(=O)N[C@H]1CC(=O)NCCCC[C@@H](C(N)=O)NC(=O)[C@H](Cc2c[nH]c3ccccc23)NC(=O)[C@H](CCCNC(=N)N)NC(=O)[C@@H](Cc2ccccc2)NC(=O)[C@H](Cc2c[nH]cn2)NC1=O [lutetium-177 labelled] | C57 mouse, female | pancreas | intravenous | 0.037 MBq | 4 h |  | 0.24 ± 0.09 %ID/g
Cc1cc(O)cc(C)c1C[C@H](NC(=O)[C@@H]1CCCN1C(=O)[C@H](CCCNC(=N)N)NC(=O)[C@H](CCCNC(=N)N)N(C)C(=O)[C@@H]1CCCN1C(=O)[C@H](CCCCN)NC(=O)[C@@H](CC(C)C)NC(=O)[C@@H](CC(C)C)NC(=O)[C@@H](CC(C)C)NC(=O)[C@@H](CC(C)C)NC(=O)CN1CCN(CC(=O)O)CCN(CC(=O)O)CCN(CC(=O)O)CC1)C(=O)N[C@H](C(=O)N[C@@H](CC(C)C)C(=O)O)C(C)(C)C [lutetium-177 labelled] | CF-1 mouse | liver | iv | 370 kBq | 1 h |  | 6.65 ± 0.71 %ID/g
CC(C)[C@H](NC(=O)[C@@H]1CCCN1C(=O)[C@H](CCCNC(=N)N)NC(=O)[C@H](CS)NC(=O)[C@H](Cc1c[nH]c2ccccc12)NC(=O)[C@H](CCCNC(=N)N)NC(=O)[C@@H](Cc1ccccc1)NC(=O)[C@H](Cc1c[nH]cn1)NC(=O)[C@H](CCC(=O)O)NC(=O)[C@H](CS)NC(=O)[C@H](CS)NC(=O)[C@H](CCCCN)NC(=O)[C@@H]1CC(=O)N[C@@H](CCCNC(=N)N)C(=O)N[C@H](Cc2ccccc2)C(=O)N[C@@H](CC(=O)O)C(=O)N[C@H](Cc2ccc(O)cc2)C(=O)N1)C(N)=O [technetium-99m labelled] | C57 mouse, female | intestine | intravenous | 0.037 MBq | 24 h |  | 0.82 ± 0.14 %ID
CCCC[C@H](NC(=O)CNC(=O)CNC(=O)CN1CCN(CC(=O)O)CCN(CC(=O)O)CC1)C(=O)N[C@H]1CC(=O)NCCCC[C@@H](C(N)=O)NC(=O)[C@H](Cc2c[nH]c3ccccc23)NC(=O)[C@H](CCCNC(=N)N)NC(=O)[C@@H](Cc2ccccc2)NC(=O)[C@H](Cc2c[nH]cn2)NC1=O [technetium-99m labelled] | C57 mouse | spleen | iv | 0.037 MBq | 4 h |  | 0.11 ± 0.05 %ID/g
N=C(N)NCCC[C@@H]1NC(=O)[C@H](CCCCNC(=O)CCOCCOCCOCCOCCNC(=O)CC[C@H](NC(=O)CCOCCOCCOCCOCCNC(=O)CN2CCN(CC(=O)O)CCN(CC(=O)O)CCN(CC(=O)O)CC2)C(=O)NCCOCCOCCOCCOCCC(=O)NCCCC[C@@H]2NC(=O)[C@@H](Cc3ccccc3)NC(=O)[C@H](CC(=O)O)NC(=O)CNC(=O)[C@H](CCCNC(=N)N)NC2=O)NC(=O)[C@@H](Cc2ccccc2)NC(=O)[C@H](CC(=O)O)NC(=O)CNC1=O [copper-64 labelled] | athymic nu/nu mouse, female | muscle | intravenous |  | 4 h |  | 0.95 ± 0.34 %ID/g
CC(C)C[C@H](NC(=O)CN1CCN(CC(=O)O)CCN(CC(=O)O)CC1)C(=O)N[C@@H](CC(C)C)C(=O)N[C@@H](CC(C)C)C(=O)N[C@@H](CC(C)C)C(=O)N[C@@H](CCCNC(=N)N)C(=O)N[C@H](C(=O)N[C@@H](CCCCN)C(=O)N[C@@H](CCCNC(=N)N)C(N)=O)C(C)C [copper-64 labelled] | CD1 mouse, male | lungs | intravenous |  | 15 min | blocked, unlabelled peptide 0.1 µmol | 1.7 ± 0.2 %ID/g
Cc1cc(O)cc(C)c1C[C@H](NC(=O)[C@@H]1CCCN1C(=O)[C@H](CCCNC(=N)N)NC(=O)[C@H](CCCNC(=N)N)N(C)C(=O)[C@@H]1CCCN1C(=O)[C@@H](CC(C)C)NC(=O)[C@@H](CC(C)C)NC(=O)[C@H](CCCCN)NC(=O)[C@@H](CC(C)C)NC(=O)[C@@H](CC(C)C)NC(=O)CN1CCN(CC(=O)O)CCN(CC(=O)O)CCN(CC(=O)O)CC1)C(=O)N[C@H](C(=O)N[C@@H](CC(C)C)C(=O)O)C(C)(C)C [lutetium-177 labelled] | CF-1 mouse | kidney | iv | 370 kBq | 24 h |  | 48.8 ± 9.59 %ID/g
CSCC[C@H](NC(=O)[C@H](CC(C)C)NC(=O)[C@H](Cc1c[nH]cn1)NC(=O)CNC(=O)[C@@H](NC(=O)[C@H](C)NC(=O)[C@H](Cc1c[nH]c2ccccc12)NC(=O)[C@H](CCC(N)=O)NC(=O)CCOCCOCCOCCOCCNC(=O)CN1CCN(CC(=O)O)CCN(CC(=O)O)CCN(CC(=O)O)CC1)C(C)C)C(N)=O [indium-111 labelled] | Swiss nu/nu mouse, male, PC-3 tumour xenograft | pancreas | intravenous | 10 pmol | 24 h |  | 14.5 ± 2.8 %ID/g
Cc1cc(O)cc(C)c1C[C@H](NC(=O)[C@@H]1CCCN1C(=O)[C@H](CCCNC(=N)N)NC(=O)[C@H](CCCNC(=N)N)N(C)C(=O)[C@@H]1CCCN1C(=O)[C@@H](CC(C)C)NC(=O)[C@@H](CC(C)C)NC(=O)[C@@H](CC(C)C)NC(=O)[C@@H](CC(C)C)NC(=O)[C@H](CCCCN)NC(=O)CN1CCN(CC(=O)O)CCN(CC(=O)O)CCN(CC(=O)O)CC1)C(=O)N[C@H](C(=O)N[C@@H](CC(C)C)C(=O)O)C(C)(C)C [lutetium-177 labelled] | CF-1 mouse | liver | iv | 370 kBq | 24 h |  | 4.73 ± 0.75 %ID/g
N=C(N)NCCC[C@@H]1NC(=O)[C@H](CCCCNC(=O)CNC(=O)CNC(=O)CNC(=O)CC[C@H](NC(=O)CNC(=O)CNC(=O)CNC(=O)CN2CCN(CC(=O)O)CCN(CC(=O)O)CCN(CC(=O)O)CC2)C(=O)NCC(=O)NCC(=O)NCC(=O)NCCCC[C@@H]2NC(=O)[C@@H](Cc3ccccc3)NC(=O)[C@H](CC(=O)O)NC(=O)CNC(=O)[C@H](CCCNC(=N)N)NC2=O)NC(=O)[C@@H](Cc2ccccc2)NC(=O)[C@H](CC(=O)O)NC(=O)CNC1=O [copper-64 labelled] | athymic nude mouse, female | whole blood | iv |  | 0.5 h |  | 2.17 ± 0.45 %ID/g

For quick reference, copied from above:
SMILES | host | sample | route | dose | time | notes | tissue uptake
N=C(N)NCCC[C@@H]1NC(=O)[C@H](CCCCNC(=O)CNC(=O)CNC(=O)CNC(=O)CC[C@H](NC(=O)CNC(=O)CNC(=O)CNC(=O)CN2CCN(CC(=O)O)CCN(CC(=O)O)CCN(CC(=O)O)CC2)C(=O)NCC(=O)NCC(=O)NCC(=O)NCCCC[C@@H]2NC(=O)[C@@H](Cc3ccccc3)NC(=O)[C@H](CC(=O)O)NC(=O)CNC(=O)[C@H](CCCNC(=N)N)NC2=O)NC(=O)[C@@H](Cc2ccccc2)NC(=O)[C@H](CC(=O)O)NC(=O)CNC1=O [copper-64 labelled] | athymic nude mouse, female | whole blood | iv |  | 0.5 h |  | 2.17 ± 0.45 %ID/g
